Measurements pooled from the literature.
Each line is one published result; not all experiments were run side by side. ± marks the error that the study gave.
ALB: Albumin (ALB, Bos taurus, UniProt P02769)
T1: dsDNA hairpin, hairpin; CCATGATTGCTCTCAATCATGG

N=C(N)NCCC[C@@H]1NC(=O)[C@H](CCCCNC(=O)CNC(=O)CNC(=O)CNC(=O)CC[C@H](NC(=O)CNC(=O)CNC(=O)CNC(=O)CC[C@H](NC(=O)CN2CCN(CC(=O)O)CCN(CC(=O)O)CCN(CC(=O)O)CC2)C(=O)NCC(=O)NCC(=O)NCC(=O)N[C@@H](CCC(=O)NCC(=O)NCC(=O)NCC(=O)NCCCC[C@@H]2NC(=O)[C@@H](Cc3ccccc3)NC(=O)[C@H](CC(=O)O)NC(=O)CNC(=O)[C@H](CCCNC(=N)N)NC2=O)C(=O)NCC(=O)NCC(=O)NCC(=O)NCCCC[C@@H]2NC(=O)[C@@H](Cc3ccccc3)NC(=O)[C@H](CC(=O)O)NC(=O)CNC(=O)[C@H](CCCNC(=N)N)NC2=O)C(=O)NCC(=O)NCC(=O)NCC(=O)NCCCC[C@@H]2NC(=O)[C@@H](Cc3ccccc3)NC(=O)[C@H](CC(=O)O)NC(=O)CNC(=O)[C@H](CCCNC(=N)N)NC2=O)NC(=O)[C@@H](Cc2ccccc2)NC(=O)[C@H](CC(=O)O)NC(=O)CNC1=O [indium-111 labelled]
tissue uptake (female athymic nu/nu mice, spleen; intravenous, 111 kBq, 72 h): 2.07 ± 0.24 %ID/g

CC(=O)[O-].O.O.[O-]c1ccc(Br)cc1C=NCCN1CCOCC1.[Zn+2]
hyperchromism (ALB; UV absorption titration; concentration not given, pH 7.2, 25 °C): 48.2%

O=S(=O)(Nc1cscn1)c1c(F)cc(NCc2c(F)ccc(F)c2CN2CCC2)cc1F
IC50 ratio (Sodium channel protein type 8 subunit alpha (SCN8A, Homo sapiens, UniProt Q9UQD0); ion current, inhibitor, automated patch clamp; reference: resting (-120 mV) over inactivated state): > 1000 fold

N#Cc1ccc(-c2ccc(-c3ccco3)o2)nc1
viability (Salmonella typhimurium; liquid broth OD; TA1535; 12.5 µM, 15 h; reference: growth): 139 ± 11.2%

Cc1cc(-c2ccc(NC(=O)[C@H](CCCCNC(=O)CCOCCOCCC(=O)N[C@H](Cc3ccccc3)C(=O)N[C@H]3CSSC[C@@H](C(=O)N[C@H](C(=O)O)[C@@H](C)O)NC(=O)[C@H]([C@@H](C)O)NC(=O)[C@H](CCCCN)NC(=O)[C@@H](Cc4c[nH]c5ccccc45)NC(=O)[C@H](Cc4ccc(O)cc4)NC3=O)NC(=O)CN3CCN(CC(=O)O)CCN(CC(=O)O)CCN(CC(=O)O)CC3)c(C)c2)ccc1N=Nc1ccc2c(S(=O)(=O)O)cc(S(=O)(=O)O)c(N)c2c1O [lutetium-177 labelled]
effective half-life (patients with metastatic NETs, liver metastases; intravenous): 145 ± 30.9 h

N=C(N)c1ccc(-c2ccc(-c3ccc(-c4ccc(C(=N)N)cc4)o3)o2)cc1
melting temperature shift (T1, dsDNA hairpin, hairpin; UV melting; 6 µM, pH 6.25, Na+ 100 mM; reference: target alone, higher = more stabilisation): 2.1 °C

Cc1nn(-c2ccc(S(=O)(=O)N[C@@H](CO)CC(C)C)cc2)c2nn3nnnc3nc12
apoptotic cells (PC-3; AO/EB staining; 2 µM, 24 h): 13 ± 1.41%

N=C(N)c1ccc(-c2ccc(-c3ccco3)o2)nc1
viability (Salmonella typhimurium; liquid broth OD; TA1535; 50 µM, 15 h; reference: growth): 100 ± 8.9%

CO[C@@H]1[C@H](O)[C@@H](COP(=O)(O)OP(=O)([O-])C(Cl)(Cl)P(=O)(O)OP(=O)(O)OC[C@H]2O[C@@H](n3cnc4c(=O)[nH]c(N)nc43)[C@H](O)[C@@H]2O)O[C@H]1n1c[n+](C)c2c(O)nc(N)nc21
hydrolysis (m7GpppX diphosphatase (DCPS, Homo sapiens, UniProt Q96C86); substrate, HPLC; 0.04 mM, 60 min, 37 °C): 0%

CSCC[C@H](NC(=O)[C@H](CO)NC(=O)[C@@H](NC(=O)[C@H](CCC(N)=O)NC(=O)[C@@H](CCCNC(=N)N)NC(=O)[C@@H](CCCNC(=N)N)NC(=O)[C@@H](CCCCN)NC(=O)[C@@H](CCCNC(=N)N)NC(C)=O)[C@@H](C)O)C(=O)N[C@H](C(=O)N[C@@H](CC(=O)O)C(=O)N[C@@H](Cc1ccccc1)C(=O)N[C@@H](Cc1ccc(O)cc1)C(=O)N[C@@H](Cc1c[nH]cn1)C(=O)N[C@@H](CO)C(=O)N[C@H](CCCCN)C(=O)N[C@H](CCCNC(=N)N)C(=O)N[C@H](CCCNC(=N)N)C(N)=O)[C@@H](C)O
binding enthalpy ΔH (Proliferating cell nuclear antigen (PCNA, Homo sapiens, UniProt P12004); isothermal titration calorimetry; concentration not given, pH 7.4, 25 °C, 100 mM NaCl, with: p21 peptide): -17.9 ± 0.239 kcal/mol

O=c1c2sccc2n(CC2COc3ccccc3O2)c(=O)n1O (stereo not drawn)
maximal single-turnover rate (Flap endonuclease 1 (Homo sapiens, UniProt P39748); inhibitor; 100 µM, 37 °C, full-length enzyme, with: double-flap substrate DF1): 0.48 ± 0.04 min⁻¹

C[C@H](CCC(=O)NCC(=O)O)[C@H]1CC[C@H]2[C@@H]3C(=O)C[C@H]4C[C@H](O)CC[C@]4(C)[C@H]3CC[C@]12C
Km (Hepatic sodium/bile acid cotransporter (SLC10A1, Homo sapiens, UniProt Q14973); uptake, substrate; HEK293 expressing SLC10A1; sodium-dependent): 20.7 ± 3.9 µM

CCCCCCCCCCCC(=O)Nc1ccccc1SSc1ccccc1NC(=O)CCCCCCCCCCC
Gibbs free energy change (ALB; binding, fluorescence quenching; 313 K): -4.62 kcal/mol

CNc1ccccc1C(=O)O[C@H]1C[C@H](n2cnc3c(N)ncnc32)O[C@@H]1COP(=O)(O)OP(=O)(O)O
pocket forward rate constant (Unconventional myosin-Va (Gallus gallus, UniProt Q02440, D297C/G292C/I296C/S293C/V295G); stopped-flow FRET; 15 °C, with: MgCl2 10 mM): 0.4 ± 0.08 s⁻¹

N=C(N)NCCC[C@H](NC(=O)[C@H](CC(=O)O)NC(=O)[C@@H]1CSCC(=O)NCC(=O)N[C@@H](Cc2c[nH]cn2)C(=O)N[C@H](Cc2ccccc2)C(=O)N[C@@H](CCCNC(=N)N)C(=O)N[C@H](Cc2c[nH]c3ccccc23)C(=O)N1)C(=O)N[C@@H](Cc1ccccc1)C(=O)NCC(N)=O
functional activity (Melanocortin receptor 4 (MC4R, Homo sapiens, UniProt P32245); cAMP accumulation; HEK293 expressing MC4R; concentration not given): inactive

CC(C)[C@H](NC(=O)[C@@H]1CCC(=O)NCCC(=O)NCCCC[C@H](NC(=O)[C@H](CCCCN)NC(=O)[C@@H](NC(=O)[C@H](Cc2c[nH]c3ccccc23)NC(=O)[C@@H]2CCCN2C(=O)[C@@H]2CCCN2C(=O)[C@H](Cc2ccccc2)NC(=O)[C@H](CO)NC(=O)CNC(=O)[C@@H](N)CSSC[C@H](NC(=O)[C@H](CCCNC(=N)N)NC(=O)[C@H](CCCNC(=N)N)NC(=O)[C@H](CCCNC(=N)N)NC(=O)[C@H](CCCNC(=N)N)NC(=O)[C@H](CCCNC(=N)N)NC(=O)[C@@H](N)CCCNC(=N)N)C(=O)O)C(C)C)C(=O)N[C@@H]([C@@H](C)O)C(=O)N1)C(=O)O
kon (Disks large homolog 4, PDZ3 domain (Homo sapiens, UniProt P78352); binding, surface plasmon resonance; pH 7.5, 25 °C): 1.78e+06 M⁻¹ s⁻¹

O=C(O[C@@H]1Cc2c(O)cc(O)cc2O[C@@H]1c1cc(O)c(O)c(O)c1)c1cc(O)c(O)c(O)c1
substrate inhibition onset (Sulfotransferase 1A1 (SULT1A1, Homo sapiens, UniProt P50225); sulfation, substrate): > 0.8 µM

COc1cccc(OC)c1OCCCn1cc(CCCNc2nc3c(c(=O)[nH]2)[n+](C)cn3C2OC(COP(=O)(O)OP(=O)([O-])OP(=O)(O)OCC3OC(n4cnc5c(=O)[nH]c(N)nc54)C(O)C3O)C(O)C2O)nn1 (stereo not drawn)
IC50 (cap-dependent translation, inhibitor; rabbit reticulocyte lysate; with: ARCA-capped luciferase mRNA): 1300 ± 230 nM

For quick reference, copied from above:
N=C(N)NCCC[C@@H]1NC(=O)[C@H](CCCCNC(=O)CNC(=O)CNC(=O)CNC(=O)CC[C@H](NC(=O)CNC(=O)CNC(=O)CNC(=O)CC[C@H](NC(=O)CN2CCN(CC(=O)O)CCN(CC(=O)O)CCN(CC(=O)O)CC2)C(=O)NCC(=O)NCC(=O)NCC(=O)N[C@@H](CCC(=O)NCC(=O)NCC(=O)NCC(=O)NCCCC[C@@H]2NC(=O)[C@@H](Cc3ccccc3)NC(=O)[C@H](CC(=O)O)NC(=O)CNC(=O)[C@H](CCCNC(=N)N)NC2=O)C(=O)NCC(=O)NCC(=O)NCC(=O)NCCCC[C@@H]2NC(=O)[C@@H](Cc3ccccc3)NC(=O)[C@H](CC(=O)O)NC(=O)CNC(=O)[C@H](CCCNC(=N)N)NC2=O)C(=O)NCC(=O)NCC(=O)NCC(=O)NCCCC[C@@H]2NC(=O)[C@@H](Cc3ccccc3)NC(=O)[C@H](CC(=O)O)NC(=O)CNC(=O)[C@H](CCCNC(=N)N)NC2=O)NC(=O)[C@@H](Cc2ccccc2)NC(=O)[C@H](CC(=O)O)NC(=O)CNC1=O [indium-111 labelled]
tissue uptake (female athymic nu/nu mice, spleen; intravenous, 111 kBq, 72 h): 2.07 ± 0.24 %ID/g

CC(=O)[O-].O.O.[O-]c1ccc(Br)cc1C=NCCN1CCOCC1.[Zn+2]
hyperchromism (ALB; UV absorption titration; concentration not given, pH 7.2, 25 °C): 48.2%
